Results gathered from unrelated publications.
Every numbered part comes from another study and shows a few of its results, in no order. Changes are numbered by the printed parent chain.

Study 1
Target: Histone acetyltransferase KAT6A, winged helix 2, GST fusion (KAT6A, Homo sapiens, UniProt Q92794, residues 85-181)
Technique: protein binding microarray
Form: double-stranded DNA, one strand shown
Matrix: in vitro
Tested at: not given
Setting: 8-mer, flanks averaged, mean of 2 arrays, mostly near background
Reference: not given
Reading: higher = stronger binding
Residues (chain): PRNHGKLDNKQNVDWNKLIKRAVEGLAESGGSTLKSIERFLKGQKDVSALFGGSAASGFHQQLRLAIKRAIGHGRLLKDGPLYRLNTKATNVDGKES
Sequence | E-score
ACTAGGAT | -0.0859
CTTCCCTC | -0.0463
AGTGAGAG | -0.042
AACGCCCC | -0.0584
CACTTAGG | -0.0712

Study 2
Target: Sal-like protein 4, full length isoform B (SALL4, Homo sapiens, UniProt Q9UJQ4-2, residues 1-616)
Technique: universal PBM
Form: double-stranded DNA, one strand shown
Matrix: in vitro
Tested at: not given
Setting: 8-mer, flanks averaged, mean of replicates
Reading: higher = stronger binding
Sequence | E-score
AACCCTAT | 0.0186
AGCTCGAG | -0.235
CTTTAAGA | 0.14
AACGTCTA | 0.149

Mixed results
CCNF: CCNF, cyclin fold, Cln2 fusion (human)
P1: RBL1 docking peptide (human); GSAKRRLFGEDPP; partner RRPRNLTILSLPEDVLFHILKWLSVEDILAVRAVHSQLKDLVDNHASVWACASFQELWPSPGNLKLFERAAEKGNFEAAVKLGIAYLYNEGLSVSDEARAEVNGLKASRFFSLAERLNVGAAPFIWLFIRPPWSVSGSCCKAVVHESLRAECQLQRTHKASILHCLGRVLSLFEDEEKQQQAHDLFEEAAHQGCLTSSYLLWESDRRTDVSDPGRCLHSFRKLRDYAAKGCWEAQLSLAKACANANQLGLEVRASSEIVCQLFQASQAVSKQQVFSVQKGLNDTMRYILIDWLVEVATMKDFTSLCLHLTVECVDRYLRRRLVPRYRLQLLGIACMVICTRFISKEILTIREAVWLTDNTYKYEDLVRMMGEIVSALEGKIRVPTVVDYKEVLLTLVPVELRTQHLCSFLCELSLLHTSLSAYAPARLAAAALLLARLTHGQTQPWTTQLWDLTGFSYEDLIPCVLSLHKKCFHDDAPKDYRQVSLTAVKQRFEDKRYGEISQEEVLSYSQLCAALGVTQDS
P2: MASTL docking peptide (human); PMIAKNLMCELDE; partner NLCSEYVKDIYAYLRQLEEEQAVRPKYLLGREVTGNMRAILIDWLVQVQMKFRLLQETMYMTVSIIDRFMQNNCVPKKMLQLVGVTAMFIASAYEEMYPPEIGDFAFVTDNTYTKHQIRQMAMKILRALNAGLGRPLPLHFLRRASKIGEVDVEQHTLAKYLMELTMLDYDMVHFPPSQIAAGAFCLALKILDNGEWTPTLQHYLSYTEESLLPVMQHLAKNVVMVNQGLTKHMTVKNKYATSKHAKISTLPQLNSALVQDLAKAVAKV
Substance | target | assay | test system | conditions | how to read | quantity | value
P1 P12N | CCNF | yeast growth competition, sequencing | yeast | strong parent motif | reference: not given, higher = stronger binding | normalised enrichment score | 7.43
PhoQ, residues 284 288 289 292 302 303 SMMNNA | PhoP, residues 12 14 15 18 19 FWNTL (Escherichia coli, UniProt P23836) | Sort-seq, refers to: YFP reporter | E. coli | PhoQ-PhoP variant library, with: 10 µM Mg2+ | reference: high Mg2+ state, higher = stronger signaling | fold induction | 7.49
P2 M2F | CCNB1, cyclin fold, Cln2 fusion (human) | yeast growth competition, sequencing | yeast | strong parent motif | reference: not given, higher = stronger binding | normalised enrichment score | 1.71
P1 A3F | CCNF | yeast growth competition, sequencing | yeast | strong parent motif | reference: not given, higher = stronger binding | normalised enrichment score | 5.62

For quick reference, copied from above (study 2):
Sequence | E-score
AGCTCGAG | -0.235
